Published values collected from several papers.
Every numbered part comes from another study and shows a few of its results, in no order. Changes are numbered by the printed parent chain.

Set 1 — method: universal PBM; molecule type: double-stranded DNA, one strand shown; sample: in vitro; concentration: 600 nM; reading: higher = stronger binding; endpoint: E-score
Target: Sal-like protein 4, full length isoform A (SALL4, Homo sapiens, UniProt Q9UJQ4, residues 1-1053)
Chain of UniProt Q9UJQ4 (whole entry, looked up): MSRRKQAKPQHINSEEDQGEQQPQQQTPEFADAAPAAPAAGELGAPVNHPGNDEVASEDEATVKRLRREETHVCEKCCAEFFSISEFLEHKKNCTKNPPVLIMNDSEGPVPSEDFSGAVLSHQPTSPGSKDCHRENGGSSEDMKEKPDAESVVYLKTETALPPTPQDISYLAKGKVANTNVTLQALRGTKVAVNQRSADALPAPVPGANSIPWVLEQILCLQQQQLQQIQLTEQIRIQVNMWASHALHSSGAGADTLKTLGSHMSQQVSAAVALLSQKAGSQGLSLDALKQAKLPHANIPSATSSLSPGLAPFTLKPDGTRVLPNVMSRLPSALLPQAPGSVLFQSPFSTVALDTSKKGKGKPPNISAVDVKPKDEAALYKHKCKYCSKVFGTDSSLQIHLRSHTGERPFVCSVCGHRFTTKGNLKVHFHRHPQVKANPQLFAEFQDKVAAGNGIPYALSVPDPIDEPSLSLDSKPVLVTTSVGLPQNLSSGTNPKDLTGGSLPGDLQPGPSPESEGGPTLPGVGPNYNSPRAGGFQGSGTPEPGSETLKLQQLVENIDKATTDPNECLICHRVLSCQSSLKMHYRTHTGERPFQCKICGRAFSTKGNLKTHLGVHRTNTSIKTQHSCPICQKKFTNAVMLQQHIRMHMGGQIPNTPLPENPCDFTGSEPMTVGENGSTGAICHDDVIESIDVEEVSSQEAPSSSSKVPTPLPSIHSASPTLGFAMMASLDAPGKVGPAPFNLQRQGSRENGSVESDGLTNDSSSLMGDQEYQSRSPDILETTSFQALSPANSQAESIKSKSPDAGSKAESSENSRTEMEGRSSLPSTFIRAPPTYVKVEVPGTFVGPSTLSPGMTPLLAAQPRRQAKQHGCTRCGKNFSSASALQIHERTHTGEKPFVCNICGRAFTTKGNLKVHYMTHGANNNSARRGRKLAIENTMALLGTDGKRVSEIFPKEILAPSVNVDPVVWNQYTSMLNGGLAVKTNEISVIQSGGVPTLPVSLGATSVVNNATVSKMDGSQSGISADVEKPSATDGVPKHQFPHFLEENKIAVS
Setting: 8-mer, flanks averaged, mean of replicates
AAGCGCTT: 0.0878
CATTGCTA: 0.178
CTGCACAC: -0.135
CGCATGCG: -0.257
GTCGTTAA: 0.186
AGTCGGAG: -0.256
GAAGACGA: -0.14
GTACTTGA: 0.0668
AACTTCGA: 0.0741
CATCGATG: 0.117
AGAAAGCG: -0.162
GTTTACCA: 0.0669
CATACCGG: -0.148
GCGGAGCA: -0.187
CCATGTCG: -0.137
GTACGGAC: -0.133
AGAAGATG: 0.104
CCCACTTC: -0.0761
CGGGCGAA: -0.16
CTGCCGTC: -0.31
CCAGAACA: 0.00993
GGAGTTTA: 0.18
CTCACACA: -0.0311
TAGGATGA: -0.0349

Set 2 — method: Sort-seq; refers to: YFP reporter; sample: E. coli; setting: PhoQ-PhoP variant library; together with: 10 µM Mg2+; relative to: high Mg2+ state; reading: higher = stronger signaling; endpoint: fold induction
Substance: PhoQ, residues 284 288 289 292 302 303 SNSSNI
PhoP, residues 12 14 15 18 19 VGHWL (Escherichia coli, UniProt P23836): 16.1
PhoP, residues 12 14 15 18 19 LHHYF (Escherichia coli, UniProt P23836): 9
PhoP, residues 12 14 15 18 19 TPWTL (Escherichia coli, UniProt P23836): 1.24
PhoP, residues 12 14 15 18 19 NFFVT (Escherichia coli, UniProt P23836): 3.68

Set 3 — method: EMSA with sequencing; molecule type: double-stranded DNA, one strand shown; sample: in vitro; concentration: 10 and 20 nM; relative to: negative control set to 0; reading: higher = stronger binding; endpoint: normalised bound fraction
Target: Hepatocyte nuclear factor 3-alpha (Foxa1, Mus musculus, UniProt P35582, residues 1-468, full length assumed)
Setting: whole designed probe, mean of two concentrations, ends assumed
Target sequence (chain): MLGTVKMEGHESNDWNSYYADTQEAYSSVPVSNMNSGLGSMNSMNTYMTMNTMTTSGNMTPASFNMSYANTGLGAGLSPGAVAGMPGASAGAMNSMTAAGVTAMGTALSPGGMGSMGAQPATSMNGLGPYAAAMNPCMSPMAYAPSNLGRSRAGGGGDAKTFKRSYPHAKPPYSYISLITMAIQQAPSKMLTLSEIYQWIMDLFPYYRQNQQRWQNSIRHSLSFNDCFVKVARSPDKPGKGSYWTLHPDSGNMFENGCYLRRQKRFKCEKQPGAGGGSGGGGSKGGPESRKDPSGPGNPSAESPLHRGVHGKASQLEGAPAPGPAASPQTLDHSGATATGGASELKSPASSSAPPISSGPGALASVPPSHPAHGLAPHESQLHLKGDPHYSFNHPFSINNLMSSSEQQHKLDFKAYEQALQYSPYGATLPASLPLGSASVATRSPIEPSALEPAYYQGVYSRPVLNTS
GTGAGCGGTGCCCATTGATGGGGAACTTAACACTGTTCACTTGTATCAACATTTTACTACTTTGAGTAAAGTGTAAAAACCTATAGGTTCCTTTACCTCCTCCTTATAATTCTCTTAAATATTTACTCACATACTTTGAGAACCATATCACACAGTATTATAATTTTTGCTTTGACCATCAAATATAATTTAGAAAATCCAACAGGATAGTTTATATTTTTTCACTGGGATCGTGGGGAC: 0.186 ratio
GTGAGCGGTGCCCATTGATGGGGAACTGAAATTTAGGAAAAGTTAATATGAATGAGAGAAAAATAACCAAAAAGAAATAGCAATTATTCCTTACTAATGTTATTTTTCTGCCTGCAAAGTAATCTTGGTAAAAGAAATTTTTCACTTTAAGTTATGAAAGTTGACACTATTATCTATAATTTTTACATGTGCCTCTATTATATGTCCTCTAGTCTTTCATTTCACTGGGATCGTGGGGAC: 0.00269 ratio
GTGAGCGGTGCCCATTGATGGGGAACGTGCTTTAAAAACATTTTAAAAGGAAAGAAAAACTAAAATCACCAATTTTGTCACCATTCAAATGTCATTGTGTTAATAATTTGATCTGTTTCTTGTTTACTTTTTCCTCTATTGAGGGTTTGTTGTTGTTGTTGTTGTTGTTGTTGTTGTTTGTTTTTGCCATAGTTGTAGTCAGTCATTCTGTATACATAATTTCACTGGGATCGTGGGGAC: 0.47 ratio
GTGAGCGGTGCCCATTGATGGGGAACATCTTCCCCCTCTTCCTTGCCCCACCAGCTCACCTTCCCGGGTCAAAGTAAACAAGTGTTTACTTTGAAGCCGGCATTCGTTAACCCTCTTCACGCGCATACTGCTGTTTGCTCTGGATGAATCATGGTCCTTTGGCGACGCCAGGCTCCGGGAGAGCAAAGCACCGTGTCAGGGCCATGATCCGGGGTGGCCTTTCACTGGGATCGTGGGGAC: 0.451 ratio
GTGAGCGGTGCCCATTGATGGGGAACATATACTCTGGAGCCCCTCCAGTGAATTCTTCATATCGGTTGTACTTTCCAACTCCAGGATTTCCTTTTGGTTCTTTTTCATAATTTCTCTCTAGATTATCTTGAGGACTCTCTATTTGATGAGCCATTGTCATCATACTTTTCTTTATCTCTTTAAGTACAGTCATAGGCAGTTTTTATCACTTGCCTTTTTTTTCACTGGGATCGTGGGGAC: 0.0357 ratio
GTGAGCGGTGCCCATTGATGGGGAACAGTCATAAAAGCAAAATAATACTGCCAACAAAGAAAATTTTACCTGGAAAAATTTACCTCTAGAATAAGGATAAAAAATAAAGACTTTATAAGGTAATCTAAAGCTGTCAGTCTTTGTCACCATGTGTATAGTTCTATAAGAAATGGTAAAGTAATTTTATACACAGATCTACAATTCTCTACTATAATAATATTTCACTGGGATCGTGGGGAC: 0.0607 ratio
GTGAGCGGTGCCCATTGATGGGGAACATCTTCCCCCTCTTCCTTGCCCCACCAGCTCACCTTCCCGGGTTATTTGCAGATAGGAAAATAAATAAAGAGCCCCGTTGTTAACCCTCTTCTGGCGCAAACTGCTGTTTGCTCTGGATGAATCATGGTCCTTTGGCGACGCCAGGCTCCGGGAGAGCAAAGCACCGTGTCAGGGCCATGATCCGGGGTGGCCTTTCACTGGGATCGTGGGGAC: 0.365 ratio
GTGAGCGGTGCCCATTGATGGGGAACCCTGTTCTGTAAAAGTGTTTGGATTGAGAGAACACGTACAAAATGACAGGATAATAGCAGGTAGATAATATTCATCTTTTTCTCCCAGGTTAATGTAAACAGGGACCTGATTTTACAAGATTTTATAGGCCATGTTTTACATACGTTGATTTTATCTTAATATGAATAAAACTTAACATATGTGGAGACATTATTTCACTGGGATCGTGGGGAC: 0.21 ratio

Set 4 — method: RNA Bind-n-Seq; molecule type: RNA; sample: in vitro; concentration: 365 nM; relative to: no-protein control; reading: higher = stronger binding; endpoint: RBNS enrichment (R)
Target: RNA binding protein fox-1 homolog 2, RRM domain, GST-SBP tag (RBFOX2, Homo sapiens, UniProt O43251-10, residues 100-194)
Setting: natural RNA segment, single round, ends assumed
Target sequence (chain): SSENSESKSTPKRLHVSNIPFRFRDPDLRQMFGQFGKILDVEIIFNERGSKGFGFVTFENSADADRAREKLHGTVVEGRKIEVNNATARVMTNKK
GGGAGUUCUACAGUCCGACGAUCCAAGGGCAACUCACGGGUGCAUGAAACCACUGGAACAUGGCCGUCGCUGUGGGGGUUUUUUUCUCUGGGGUUCCCCUGGAAAGGCUGCAGGAACUAGGCACAAGCUCUCUUGGAAUUCUCGGGUGCCAA: 0.894
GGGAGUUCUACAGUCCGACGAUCUCUCUUUAAAAUUUCAAGUGUUAUCAUGAUUGUUUAUAUGAAUGUAGAACACCUCGGUAUUUCUUUUUAUAUAUAUAAACUAUUUAAUAAAAAUGAAAGAUUGAAUGUUAUGGAAUUCUCGGGUGCCAA: 2.11
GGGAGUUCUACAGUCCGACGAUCGUUUCCUUUUAGACACAAACAAUAAAAUUAUUUUGAAGGCAAUGAGAAACUAAUCAAAGACUAAUCUCUGUUGGAGGUUGGGAAUAAUGUUUUGCCACUUCUGCAGACUGUGGAAUUCUCGGGUGCCAA: 0.308
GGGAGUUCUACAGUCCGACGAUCAACACUCUUCCAAGGAAAAGCAGAAGUAAUAAUUGGAGGUAAAGUUUCCUUAGAGAAAAUAAUUUUAUUCUGCUUUGUCCAAUUAAAUUAUUCCAAUGGCGGAUGGUAAUUGGAAUUCUCGGGUGCCAA: 0.898
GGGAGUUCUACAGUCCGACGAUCUGAAAAAUGGGGAAAACUGCUAAACAUCCCAGAGAUUUGCAAUCUUCUAGCUCUCCAGGUGAGCAGAAAGACCAAAUAUCCAAAUAAAAGCCUGAAAGCCAUUGGUGAUCUGGAAUUCUCGGGUGCCAA: 0.356
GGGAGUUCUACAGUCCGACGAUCAGGGUGGGGGAAGGCUUUCUCUUCAAAUUCGCUAGUUGAGUUUUUAAGAUAGUGUAACAUGCUUACAUUUCUUAUCCGACAUUAACAAAUAAAACGCUGUUUUCCUAUUAUGGAAUUCUCGGGUGCCAA: 0.385
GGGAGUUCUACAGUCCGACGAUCUCUAAGAUGUCCCAGGUCCUGGGAAGUUUACUCAAUAAAGCUGGCUUUCCCCUGCCCUCCAUGCUGGUCCUGUGCAGCCCCCAGCCUGCACCACUCAGCAGUGGGGGGCUUGGAAUUCUCGGGUGCCAA: 0.348
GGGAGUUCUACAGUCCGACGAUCCCCCUGGUGGGGGAUUGGGGAUCUGUGUUUAGCCAUUUAUAUCUACUUUAGCUGUUAAAGAGGUCCAAAUGAAAAUCAGGUGAUUGUGGAACCAUGGGGACUUGGGGGUGUGGAAUUCUCGGGUGCCAA: 0.333
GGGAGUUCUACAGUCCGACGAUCUAUGUGGAGGACAUGUUCCCAUGGAUCAUAUGUGAAGAUGUCAAUAAGCUUGCAUUAAGCCACCUGCUUUGUAAGUGGAUUGAUUAAUAAAUAACUUAUAUUUCUAUUGUUGGAAUUCUCGGGUGCCAA: 0.359
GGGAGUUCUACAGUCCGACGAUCUGUCUGCAAACACUACCCUACCUAAAUCCAGCCUCUAAGGUCUCACUGGUGUGGAAUUAAACUCUUAUUGGCCAAAUGCCUGUUUUCAUGAGGUGACUUGUAAAGAUUUUUGGAAUUCUCGGGUGCCAA: 0.508
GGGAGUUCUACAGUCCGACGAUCUUUUUGUAUCAAAAAUAAAGGUUAUUUUGAAAUUAUUAGGAUUUUUACACAAUUCUGAAAUCUGUUGCUUUUGUAAACAAAUUGUUUGAUCUUAGUGAUCCCCCUACUACUGGAAUUCUCGGGUGCCAA: 0.418
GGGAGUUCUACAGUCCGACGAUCUUGAGGCCCAGACUCAGCCUGCCCACUGGUGCCGGAGACGGAGUGGAGUGGGCCUGGAUCCGAGGGAUGCUACCUCUCCCUUUCCCACUUGAGGACCCUGGGGAGAGAUGUGGAAUUCUCGGGUGCCAA: 0.921

Set 5 — target: CCND3, cyclin fold, Cln2 fusion (human); method: yeast growth competition, sequencing; sample: yeast; setting: weak parent motif; relative to: not given; reading: higher = stronger binding; endpoint: normalised enrichment score
Parent: CDKN1B docking peptide (human); PSACRNLFGPVDH
G9V: 0.167
G9P: 0.0849
P10N: 0.122
D12R: 0.12
S2A: 0.13
P1L: 0.139
R5V: 0.12
F8E: 0.0657
F8I: 0.143
C4H: 0.132
P1N: 0.0851
P10R: 0.162
D12I: 0.0879
S2E: 0.103
P10Y: 0.19
G9L: 0.178

Set 6 — method: DHFR PCA, deep sequencing; sample: yeast; together with: (+)-ABA 0.11 µM; relative to: wild-type fitted maximum; reading: higher = stronger binding; endpoint: relative binding score
Target: ABI1, truncated, D143A, DHFR fusion (Arabidopsis thaliana)
Setting: methotrexate growth selection, single substitutions
Parent: PYL1, truncated, DHFR fusion (Arabidopsis thaliana); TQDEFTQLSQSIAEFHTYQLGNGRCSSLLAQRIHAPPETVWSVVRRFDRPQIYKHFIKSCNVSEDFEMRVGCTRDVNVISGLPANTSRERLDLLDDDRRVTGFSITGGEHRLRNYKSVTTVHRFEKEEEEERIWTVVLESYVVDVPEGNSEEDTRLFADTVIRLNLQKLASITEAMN; partner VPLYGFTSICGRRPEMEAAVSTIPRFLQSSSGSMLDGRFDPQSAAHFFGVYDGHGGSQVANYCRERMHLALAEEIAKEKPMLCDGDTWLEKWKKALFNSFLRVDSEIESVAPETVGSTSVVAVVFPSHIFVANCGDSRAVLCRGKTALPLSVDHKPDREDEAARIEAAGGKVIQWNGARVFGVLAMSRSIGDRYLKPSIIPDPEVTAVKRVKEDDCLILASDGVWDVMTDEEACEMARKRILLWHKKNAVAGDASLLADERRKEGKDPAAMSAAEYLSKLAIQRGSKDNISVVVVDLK
L169I: -2.75%
H122N: 10.1%
Y141K: -7.79%
I12R: 3.01%
N61C: 33.4%
H122E: -1.62%
E131A: 37.4%
G71Q: 1.1%
F15T: -2.28%
S80R: 2.9%
K58P: 24.1%
N149G: 63.5%
D95I: -8.55%
I105L: -8.47%
V161N: 16.8%
R24F: 0.0866%
G107L: -2.96%
R45Q: -3.62%
T106S: 1.11%
F66W: 15.3%
V78W: 77.4%
K116A: 2.93%
E127M: 41.9%
V40L: -1.6%
G102M: -2.61%

Repeated from above (set 1):
CTGCACAC: -0.135
CGCATGCG: -0.257
GTCGTTAA: 0.186
AGTCGGAG: -0.256
GAAGACGA: -0.14
GTACTTGA: 0.0668
AACTTCGA: 0.0741
CATCGATG: 0.117
AGAAAGCG: -0.162
